# Measured values collected from several papers.
# ± marks the error that the study gave.
# HLA class I histocompatibility antigen, B alpha chain: HLA class I histocompatibility antigen, B alpha chain (Homo sapiens, UniProt P01889)
# Polyprotein P1234 nsP2 protease domain: Polyprotein P1234, nsP2 protease domain (Chikungunya virus, UniProt Q5XXP4)
# Chain of UniProt Q5XXP4 (whole entry, looked up): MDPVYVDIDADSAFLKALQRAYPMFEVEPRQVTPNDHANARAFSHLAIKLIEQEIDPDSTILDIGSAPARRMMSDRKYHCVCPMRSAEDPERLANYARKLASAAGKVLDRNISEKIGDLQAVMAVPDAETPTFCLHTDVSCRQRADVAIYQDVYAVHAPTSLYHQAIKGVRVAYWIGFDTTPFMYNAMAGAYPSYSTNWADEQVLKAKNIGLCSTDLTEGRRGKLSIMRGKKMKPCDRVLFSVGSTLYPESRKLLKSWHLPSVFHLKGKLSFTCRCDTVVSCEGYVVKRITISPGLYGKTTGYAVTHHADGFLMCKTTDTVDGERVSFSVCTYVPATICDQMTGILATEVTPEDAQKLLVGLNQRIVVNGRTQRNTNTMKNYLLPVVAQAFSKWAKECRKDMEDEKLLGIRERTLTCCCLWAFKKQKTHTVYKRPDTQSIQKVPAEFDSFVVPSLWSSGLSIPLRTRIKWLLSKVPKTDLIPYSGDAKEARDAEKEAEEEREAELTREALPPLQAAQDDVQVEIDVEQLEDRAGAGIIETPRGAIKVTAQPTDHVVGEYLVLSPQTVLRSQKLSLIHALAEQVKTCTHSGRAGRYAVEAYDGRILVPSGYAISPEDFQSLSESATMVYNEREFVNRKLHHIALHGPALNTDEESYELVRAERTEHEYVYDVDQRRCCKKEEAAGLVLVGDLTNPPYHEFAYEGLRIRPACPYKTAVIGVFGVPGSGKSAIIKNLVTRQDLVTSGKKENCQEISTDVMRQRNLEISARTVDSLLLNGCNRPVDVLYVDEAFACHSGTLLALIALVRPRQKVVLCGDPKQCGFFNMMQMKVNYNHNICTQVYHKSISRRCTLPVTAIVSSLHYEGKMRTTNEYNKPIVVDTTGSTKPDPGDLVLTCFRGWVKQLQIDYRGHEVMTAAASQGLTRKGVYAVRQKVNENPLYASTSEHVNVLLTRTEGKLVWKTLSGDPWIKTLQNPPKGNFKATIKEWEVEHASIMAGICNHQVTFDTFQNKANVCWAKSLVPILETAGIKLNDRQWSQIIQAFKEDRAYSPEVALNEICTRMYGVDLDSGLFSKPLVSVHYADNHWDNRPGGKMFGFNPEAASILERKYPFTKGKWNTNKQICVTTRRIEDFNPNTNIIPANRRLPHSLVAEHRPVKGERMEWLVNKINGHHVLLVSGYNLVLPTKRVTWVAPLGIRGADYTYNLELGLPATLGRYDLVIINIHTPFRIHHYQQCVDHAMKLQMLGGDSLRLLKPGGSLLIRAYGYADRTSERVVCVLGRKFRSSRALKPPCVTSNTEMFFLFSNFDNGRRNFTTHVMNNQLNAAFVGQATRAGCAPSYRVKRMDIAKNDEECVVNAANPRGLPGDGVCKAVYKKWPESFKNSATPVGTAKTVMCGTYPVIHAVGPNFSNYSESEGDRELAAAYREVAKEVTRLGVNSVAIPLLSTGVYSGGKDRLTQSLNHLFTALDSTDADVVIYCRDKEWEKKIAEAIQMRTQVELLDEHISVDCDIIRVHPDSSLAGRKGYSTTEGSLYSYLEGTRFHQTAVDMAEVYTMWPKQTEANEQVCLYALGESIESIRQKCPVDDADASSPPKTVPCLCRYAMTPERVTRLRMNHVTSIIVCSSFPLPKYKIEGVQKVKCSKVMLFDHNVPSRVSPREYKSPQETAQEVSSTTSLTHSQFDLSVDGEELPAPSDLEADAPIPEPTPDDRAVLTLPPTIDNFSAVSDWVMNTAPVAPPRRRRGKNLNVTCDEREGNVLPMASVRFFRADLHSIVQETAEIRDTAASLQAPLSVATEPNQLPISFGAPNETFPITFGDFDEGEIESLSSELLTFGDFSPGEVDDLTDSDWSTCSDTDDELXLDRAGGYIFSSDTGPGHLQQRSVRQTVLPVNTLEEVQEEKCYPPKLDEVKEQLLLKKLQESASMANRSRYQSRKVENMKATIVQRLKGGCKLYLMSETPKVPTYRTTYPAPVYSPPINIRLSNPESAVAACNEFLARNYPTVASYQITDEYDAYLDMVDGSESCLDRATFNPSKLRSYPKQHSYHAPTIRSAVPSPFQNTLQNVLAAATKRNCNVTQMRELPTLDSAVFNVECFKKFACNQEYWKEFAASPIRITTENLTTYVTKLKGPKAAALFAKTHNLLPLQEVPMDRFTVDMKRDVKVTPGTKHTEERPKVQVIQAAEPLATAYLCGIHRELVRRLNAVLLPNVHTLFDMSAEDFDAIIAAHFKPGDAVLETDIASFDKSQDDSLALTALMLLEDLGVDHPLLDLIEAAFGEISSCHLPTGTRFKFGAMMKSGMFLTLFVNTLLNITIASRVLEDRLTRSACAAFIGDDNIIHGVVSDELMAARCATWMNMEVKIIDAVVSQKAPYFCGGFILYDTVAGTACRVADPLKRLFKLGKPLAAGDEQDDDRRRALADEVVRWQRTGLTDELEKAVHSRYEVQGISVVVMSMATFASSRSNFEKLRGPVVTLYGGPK
# nanI: Sialidase (nanI, Clostridium perfringens, UniProt A0A0H2YQR1)
# HLA class I histocompatibility antigen, A alpha chain allele A*11:01: HLA class I histocompatibility antigen, A alpha chain, allele A*11:01 (Homo sapiens, UniProt P04439)
# Polyprotein P1234 nsP2: Polyprotein P1234, nsP2 (Chikungunya virus, UniProt Q8JUX6)
# Chain of UniProt Q8JUX6 (whole entry, looked up): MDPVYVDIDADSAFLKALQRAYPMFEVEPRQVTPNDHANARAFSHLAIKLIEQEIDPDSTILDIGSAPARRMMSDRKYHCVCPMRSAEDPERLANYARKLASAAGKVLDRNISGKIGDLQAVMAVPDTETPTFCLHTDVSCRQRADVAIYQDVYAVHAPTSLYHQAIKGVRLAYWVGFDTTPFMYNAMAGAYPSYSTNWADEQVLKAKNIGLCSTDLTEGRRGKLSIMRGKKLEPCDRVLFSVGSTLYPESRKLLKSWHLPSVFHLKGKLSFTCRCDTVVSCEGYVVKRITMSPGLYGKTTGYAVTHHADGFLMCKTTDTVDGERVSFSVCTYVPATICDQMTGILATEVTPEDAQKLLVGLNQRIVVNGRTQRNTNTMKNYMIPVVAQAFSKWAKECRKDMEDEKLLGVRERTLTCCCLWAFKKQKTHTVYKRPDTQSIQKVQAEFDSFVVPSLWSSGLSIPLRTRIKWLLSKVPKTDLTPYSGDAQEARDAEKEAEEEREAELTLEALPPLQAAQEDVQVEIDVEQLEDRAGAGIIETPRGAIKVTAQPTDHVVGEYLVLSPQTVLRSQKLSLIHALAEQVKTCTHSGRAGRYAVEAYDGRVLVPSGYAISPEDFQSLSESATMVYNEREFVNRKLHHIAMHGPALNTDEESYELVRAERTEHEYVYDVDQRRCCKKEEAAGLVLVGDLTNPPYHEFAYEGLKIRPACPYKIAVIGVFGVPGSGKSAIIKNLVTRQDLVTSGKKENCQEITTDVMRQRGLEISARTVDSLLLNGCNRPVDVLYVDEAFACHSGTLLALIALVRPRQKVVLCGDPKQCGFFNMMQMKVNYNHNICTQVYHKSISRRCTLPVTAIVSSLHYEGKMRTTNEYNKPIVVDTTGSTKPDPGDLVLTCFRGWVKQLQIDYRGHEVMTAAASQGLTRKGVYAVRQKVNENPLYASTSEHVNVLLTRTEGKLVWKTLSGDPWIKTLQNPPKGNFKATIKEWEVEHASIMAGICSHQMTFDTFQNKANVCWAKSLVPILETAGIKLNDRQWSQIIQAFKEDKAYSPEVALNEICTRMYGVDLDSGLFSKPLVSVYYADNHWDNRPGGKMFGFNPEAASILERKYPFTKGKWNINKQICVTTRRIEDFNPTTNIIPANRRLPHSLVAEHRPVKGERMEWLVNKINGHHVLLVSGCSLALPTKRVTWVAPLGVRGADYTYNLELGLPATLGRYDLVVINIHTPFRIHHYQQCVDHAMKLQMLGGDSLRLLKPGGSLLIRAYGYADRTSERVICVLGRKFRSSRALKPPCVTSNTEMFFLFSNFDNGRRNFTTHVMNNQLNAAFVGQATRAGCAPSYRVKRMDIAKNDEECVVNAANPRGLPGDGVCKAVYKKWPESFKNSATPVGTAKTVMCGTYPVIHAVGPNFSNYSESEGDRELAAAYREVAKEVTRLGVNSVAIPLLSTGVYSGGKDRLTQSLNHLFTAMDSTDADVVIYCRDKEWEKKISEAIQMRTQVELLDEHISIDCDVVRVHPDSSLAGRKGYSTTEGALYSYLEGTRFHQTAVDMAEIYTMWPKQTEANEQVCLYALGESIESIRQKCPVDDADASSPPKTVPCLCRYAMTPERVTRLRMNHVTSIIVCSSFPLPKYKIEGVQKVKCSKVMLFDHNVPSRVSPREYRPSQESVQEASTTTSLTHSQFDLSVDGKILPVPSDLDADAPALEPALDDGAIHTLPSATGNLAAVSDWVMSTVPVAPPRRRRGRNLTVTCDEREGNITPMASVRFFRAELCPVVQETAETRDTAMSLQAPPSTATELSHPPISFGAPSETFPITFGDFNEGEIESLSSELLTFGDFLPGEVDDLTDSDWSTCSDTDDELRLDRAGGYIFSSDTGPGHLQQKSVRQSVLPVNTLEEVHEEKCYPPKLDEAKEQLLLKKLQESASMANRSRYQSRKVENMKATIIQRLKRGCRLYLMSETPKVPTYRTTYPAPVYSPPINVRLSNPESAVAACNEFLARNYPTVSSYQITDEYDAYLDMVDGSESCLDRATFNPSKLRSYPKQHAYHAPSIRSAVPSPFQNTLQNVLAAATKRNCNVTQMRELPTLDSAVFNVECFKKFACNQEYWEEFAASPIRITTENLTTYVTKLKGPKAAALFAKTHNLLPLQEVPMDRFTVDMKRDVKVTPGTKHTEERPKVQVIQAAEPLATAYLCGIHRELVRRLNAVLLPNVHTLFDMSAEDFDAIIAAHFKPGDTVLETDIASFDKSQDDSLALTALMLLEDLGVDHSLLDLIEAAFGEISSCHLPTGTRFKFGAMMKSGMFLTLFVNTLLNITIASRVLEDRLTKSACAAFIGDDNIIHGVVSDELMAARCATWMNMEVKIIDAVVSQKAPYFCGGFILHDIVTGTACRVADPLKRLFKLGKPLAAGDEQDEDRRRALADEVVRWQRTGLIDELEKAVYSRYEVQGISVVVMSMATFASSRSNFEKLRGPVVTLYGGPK
# Chain of UniProt Q81Y92 (whole entry, looked up): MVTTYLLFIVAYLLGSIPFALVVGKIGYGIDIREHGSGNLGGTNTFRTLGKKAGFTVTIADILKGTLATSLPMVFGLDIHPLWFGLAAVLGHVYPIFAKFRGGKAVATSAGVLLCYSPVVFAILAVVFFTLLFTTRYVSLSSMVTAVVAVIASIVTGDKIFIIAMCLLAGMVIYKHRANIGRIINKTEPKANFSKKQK
Molecule,target,test,system,conditions,IC50 [nM]
CCC(C(=O)Nc1cc(NC2CNC2)ccc1C)n1cccc2nc(SCc3ccc(F)cc3)nc1-2 (stereo not drawn),"Replicase polyprotein 1ab, papain-like protease (rep, Severe acute respiratory syndrome-related coronavirus, UniProt P0C6X7)",enzyme activity,,,129 ± 32
[N-]=[N+]=Nc1ccsc1C(=O)O,"cpsA (Mycobacterium tuberculosis, UniProt O06347)",,,concentration not given,410000
CSCC[C@H](NC(=O)[C@@H](NC(=O)[C@@H](NC(=O)[C@H](C)NC(=O)[C@H](Cc1ccc(O)cc1)NC(=O)[C@H](Cc1c[nH]cn1)NC(=O)[C@H](CCCNC(=N)N)NC(=O)[C@@H]1CCCN1C(=O)[C@@H](N)Cc1c[nH]cn1)[C@@H](C)O)C(C)C)C(=O)O,"HLA class I histocompatibility antigen, B alpha chain",biochemical,,,0.87
CCC(CC)O[C@@H]1C=C(C(=O)O)C[C@H](N)[C@H]1NC(C)=O,"Neuraminidase (Influenza A virus, UniProt Q3M0T6)",,human reference strains,mean,0.53 ± 0.02
COc1cc(Nc2ncc(F)c(Nc3ccc4c(n3)NC(=O)C(C)(C)O4)n2)cc(OC)c1OC,strychnine-sensitive glycine receptor,binding,,,> 10000
CC[C@H](C)[C@H](NC(=O)[C@H](CC(N)=O)NC(=O)CNC(=O)[C@H](CC(=O)O)NC(=O)[C@H](Cc1ccc(O)cc1)NC(=O)[C@H](Cc1ccc(O)cc1)NC(=O)[C@@H](N)CCCNC(=N)N)C(=O)N[C@@H](Cc1ccc(O)cc1)C(=O)N[C@@H](CCC(=O)O)C(=O)N[C@@H](CC(C)C)C(=O)O,"HLA class I histocompatibility antigen, A alpha chain, allele A*24:02 (Homo sapiens, UniProt P04439)",biochemical,,,9.6
O=c1c(-c2ccccc2)c(O)c2cc(-c3cccc(-c4ccccc4)c3)cnc2n1O,"Resolvase OPG149 (OPG149, Monkeypox virus, UniProt A0A7H0DNC1)",,,,335
Cc1[nH]c2ccccc2c1/C=C1/N=C(c2ccc(F)cc2)OC1=O,"Replicase polyprotein 1ab, nsp13 helicase (rep, Severe acute respiratory syndrome coronavirus 2, UniProt P0DTD1)","helicase ATPase activity, inhibitor, Kinase-Glo luminescence",,,> 150000
CC(C)[C@H](N)C(=O)N[C@H](C(=O)N[C@@H](CC(=O)O)C(=O)N[C@H](C(=O)N[C@@H](CC(N)=O)C(=O)N[C@@H](CCCCN)C(=O)N[C@@H](Cc1ccccc1)C(=O)N[C@@H](CC(=O)O)C(=O)N[C@@H](CC(N)=O)C(=O)N[C@@H](Cc1ccc(O)cc1)C(=O)O)[C@@H](C)O)[C@@H](C)O,"HLA class I histocompatibility antigen, A alpha chain, allele A*01:01 (Homo sapiens, UniProt P04439)",biochemical,,,0.97
C=CC(=O)N1CC[C@H](CC(=O)O)C1,Polyprotein P1234 nsP2 protease domain,"protease activity, inhibitor, FRET",,"90 min, 30 min preincubation",130000 ± 68000
CCC(CC)[C@H](NC(C)=O)[C@@H]1[C@H](O)[C@@H](C(=O)O)C[C@H]1N=C(N)N,"Neuraminidase (Influenza A virus, UniProt L0MUX9)","enzyme activity, inhibitor","swine influenza A virus, H1N2",,0.14 ± 0.03
CCC(C(=O)Nc1ccccc1C)n1cccc2nc([S+]([O-])Cc3ccc(F)cc3)nc1-2 (stereo not drawn),"Replicase polyprotein 1ab, papain-like protease (rep, Severe acute respiratory syndrome-related coronavirus, UniProt P0C6X7)",enzyme activity,,,15700 ± 1200
Cn1cnc(Cn2c(=O)[nH]/c(=N\c3cc4cn(C)nc4cc3Cl)n(Cc3cc(F)c(F)cc3F)c2=O)n1,"Cytochrome P450 2B6 (CYP2B6, Homo sapiens, UniProt P20813)",inhibitor,human liver microsomes,"0 min preincubation, added: efavirenz 5 µM",> 100000
Cc1ccc(C(=O)Nc2ccnc(S(N)(=O)=O)c2)c(N2CCCC(F)(F)CC2)n1,"Sodium channel Nav1.8 (Macaca mulatta, UniProt F7CEK9)","TTX-resistant sodium current, manual patch clamp",rhesus DRG neurons,added: 300 nM TTX,9.3 ± 1.8
CC(C)(C)CC(=O)N[C@H]1[C@H]([C@H](O)[C@H](O)CO)OC(C(=O)O)=C[C@@H]1O,nanI,"enzyme activity, inhibitor",,,90000
CC[C@H](C)[C@H](NC(=O)[C@H](CCCNC(=N)N)NC(=O)[C@@H]1CCCN1C(=O)[C@H](C)N)C(=O)N[C@H](C(=O)N[C@@H](Cc1ccccc1)C(=O)NCC(=O)NCC(=O)N1CCC[C@H]1C(=O)O)[C@@H](C)O,"HLA class I histocompatibility antigen, B alpha chain","binding, competitor",,,1960
CCCCCCCCCCCCCCCC(=O)CP(=O)(O)O,"Glycerol-3-phosphate acyltransferase 3 (plsY3, Bacillus anthracis, UniProt Q81Y92)",inhibitor,,,90000
Cc1ccc(NC2CNC2)cc1NC(=O)C(C)n1cccc2nc(SCc3ccc(F)cc3)nc1-2 (stereo not drawn),"Replicase polyprotein 1ab, papain-like protease (rep, Severe acute respiratory syndrome-related coronavirus, UniProt P0C6X7)",enzyme activity,,,759 ± 117
CC[C@H](C)[C@H](NC(=O)[C@@H](NC(=O)[C@H](CC(=O)O)NC(=O)CNC(=O)CNC(=O)[C@H](CCCCN)NC(=O)[C@@H](N)CCCCN)C(C)C)C(=O)N[C@@H](CC(N)=O)C(=O)N[C@@H](Cc1ccc(O)cc1)C(=O)O,"HLA class I histocompatibility antigen, A alpha chain allele A*11:01",biochemical,,,1270
oseltamivir carboxylate,"neuraminidase (Influenza A virus, UniProt W8NQL2)","enzyme activity, inhibitor",A(H5N8),mean over viruses,0.29 ± 0.08
C=CC(=O)N1C[C@@H]2CC[C@@H]2[C@H]1C(=O)O,Polyprotein P1234 nsP2 protease domain,"enzyme activity, inhibitor, FRET",,"90 min, 30 min preincubation",20000 ± 7000
CC[C@H](C)[C@H](NC(=O)[C@H](CCCCN)NC(=O)[C@H](CC(C)C)NC(=O)[C@@H](N)Cc1c[nH]c2ccccc12)C(=O)N[C@@H](CCCCN)C(=O)N[C@@H](CCCNC(=N)N)C(=O)N[C@@H](CC(=O)O)C(=O)N[C@@H](Cc1ccc(O)cc1)C(=O)N[C@@H](CC(C)C)C(=O)O,"HLA class I histocompatibility antigen, B alpha chain, allele B*08:01 (Homo sapiens, UniProt P01889)",biochemical,,,0.77
C=CS(=O)(=O)c1ccc(C#N)cn1,Polyprotein P1234 nsP2 protease domain,"protease activity, inhibitor, FRET",,"90 min, 30 min preincubation",24000 ± 4000
O=C1Cc2cc(-c3ccco3)ccc2C(=O)N1O,"Resolvase OPG149 (OPG149, Vaccinia virus, UniProt Q80HV3)",,,,410
CCC(C(=O)Nc1cc(NC2CNC2)ccc1C)n1cc(F)cc2nc(SCc3ccc(F)cc3)nc1-2 (stereo not drawn),"Replicase polyprotein 1ab, papain-like protease (rep, Severe acute respiratory syndrome-related coronavirus, UniProt P0C6X7)",enzyme activity,,,213 ± 30
O=C(N1CCC2(CC1)C[C@@H](CN1CCCCS1(=O)=O)CCO2)C1(c2cc(F)cc(F)c2)CCCC1,Polyprotein P1234 nsP2,"nsP2 RNA unwinding, inhibitor, FRET strand separation",,,56000
CC(=O)N[C@H]1C(O)O[C@H](CO)[C@@H](O[C@@H]2O[C@H](CO)[C@H](O)[C@H](O)[C@H]2O)[C@@H]1O (stereo partly drawn),"Spike glycoprotein, with ACE2 (Severe acute respiratory syndrome coronavirus 2, UniProt P0DTC2)","binding to human ACE2, inhibitor",SARS-CoV-2,,23.5
CCC(C(=O)Nc1ccccc1OC)n1c(SCc2ccc(F)cc2)nc2ncccc21 (stereo not drawn),"Replicase polyprotein 1ab, papain-like protease (rep, Middle East respiratory syndrome-related coronavirus, UniProt K9N7C7)","enzyme activity, inhibitor",,,> 100000
CCCCCCN[C@H]1[C@H]([C@H](O)[C@H](O)CO)OC(C(=O)O)=C[C@@H]1O,nanI,"enzyme activity, inhibitor",,,> 500000
CCCC(C(=O)Nc1cc(NC2CCNCC2)ccc1C)n1cccc2nc(SCc3ccc(F)cc3)nc1-2 (stereo not drawn),"Replicase polyprotein 1ab, papain-like protease (rep, Severe acute respiratory syndrome-related coronavirus, UniProt P0C6X7)",enzyme activity,,,968 ± 189
CC(C)COc1ncc(C(=O)NCC=CS(C)(=O)=O)cc1Cl,Polyprotein P1234 nsP2 protease domain,"protease activity, inhibitor, FRET",,"90 min, 30 min preincubation",23000 ± 2000
CC(C)C[C@H](NC(=O)[C@H](Cc1ccccc1)NC(=O)[C@H](CO)NC(=O)[C@H](CC(=O)O)NC(=O)[C@H](CCCCN)NC(=O)[C@H](Cc1ccccc1)NC(=O)[C@@H](NC(=O)[C@H](C)N)C(C)C)C(=O)N[C@@H](CCCNC(=N)N)C(=O)N[C@@H](CCCCN)C(=O)O,"HLA class I histocompatibility antigen, A alpha chain allele A*11:01",biochemical,,,6.1
O=C(O)C1=C[C@H](O)[C@@H](NCc2ccc(-c3ccccc3)cc2)[C@H]([C@H](O)[C@H](O)CO)O1,nanI,"enzyme activity, inhibitor",,,21000
O=C(CCl)NCC#CC1CCCCO1 (stereo not drawn),Polyprotein P1234 nsP2 protease domain,"enzyme activity, inhibitor, FRET",,"90 min, 30 min preincubation",1700 ± 100
O=C(N1CCC2(CC1)C[C@@H](CN1CCCCS1(=O)=O)CCO2)C1(c2ccccc2)CCCC1,Polyprotein P1234 nsP2,"nsP2 RNA unwinding, inhibitor, FRET strand separation",,,26000
CCC(C(=O)Nc1cc(NC2CCNC2)ccc1C)n1cc(Cl)cc2nc(SCc3ccc(F)cc3)nc1-2 (stereo not drawn),"Replicase polyprotein 1ab, papain-like protease (rep, Middle East respiratory syndrome-related coronavirus, UniProt K9N7C7)","enzyme activity, inhibitor",,,> 100000
CCC(CC)[C@H](NC(C)=O)[C@@H]1[C@H](O)[C@@H](C(=O)O)C[C@H]1N=C(N)N,"neuraminidase (Influenza A virus, UniProt A0A088CBR8)",,,,0.28
CCC(C(=O)Nc1ccccn1)n1cccc2nc(SCc3ccc(F)cc3)nc1-2 (stereo not drawn),"Replicase polyprotein 1ab, papain-like protease (rep, Middle East respiratory syndrome-related coronavirus, UniProt K9N7C7)","enzyme activity, inhibitor",,,> 100000
C=CS(=O)(=O)CCC(=O)Nc1nn(C2CCCCC2)cc1C,Polyprotein P1234 nsP2 protease domain,"protease activity, inhibitor, FRET",,"90 min, 30 min preincubation",24000 ± 3000

# Repeated from above:
Molecule,target,test,system,conditions,IC50 [nM]
CC(C)C[C@H](NC(=O)[C@H](Cc1ccccc1)NC(=O)[C@H](CO)NC(=O)[C@H](CC(=O)O)NC(=O)[C@H](CCCCN)NC(=O)[C@H](Cc1ccccc1)NC(=O)[C@@H](NC(=O)[C@H](C)N)C(C)C)C(=O)N[C@@H](CCCNC(=N)N)C(=O)N[C@@H](CCCCN)C(=O)O,"HLA class I histocompatibility antigen, A alpha chain allele A*11:01",biochemical,,,6.1
CCC(CC)O[C@@H]1C=C(C(=O)O)C[C@H](N)[C@H]1NC(C)=O,"Neuraminidase (Influenza A virus, UniProt Q3M0T6)",,human reference strains,mean,0.53 ± 0.02
CC(C)[C@H](N)C(=O)N[C@H](C(=O)N[C@@H](CC(=O)O)C(=O)N[C@H](C(=O)N[C@@H](CC(N)=O)C(=O)N[C@@H](CCCCN)C(=O)N[C@@H](Cc1ccccc1)C(=O)N[C@@H](CC(=O)O)C(=O)N[C@@H](CC(N)=O)C(=O)N[C@@H](Cc1ccc(O)cc1)C(=O)O)[C@@H](C)O)[C@@H](C)O,"HLA class I histocompatibility antigen, A alpha chain, allele A*01:01 (Homo sapiens, UniProt P04439)",biochemical,,,0.97
